Measured values from different studies.
Several values in a cell are separate wells, animals, samples, runs or records. ± marks the error that the study gave.
UniProt Q9R0P3, sequence (whole entry, looked up): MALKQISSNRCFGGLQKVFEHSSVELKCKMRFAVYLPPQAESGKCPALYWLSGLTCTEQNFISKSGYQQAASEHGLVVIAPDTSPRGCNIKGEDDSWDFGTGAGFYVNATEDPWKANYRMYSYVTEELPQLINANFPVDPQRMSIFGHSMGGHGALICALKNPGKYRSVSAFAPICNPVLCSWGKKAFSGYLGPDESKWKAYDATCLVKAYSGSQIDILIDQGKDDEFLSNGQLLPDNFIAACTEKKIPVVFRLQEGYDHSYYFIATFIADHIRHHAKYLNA
UniProt Q9Y2J8, sequence (whole entry, looked up): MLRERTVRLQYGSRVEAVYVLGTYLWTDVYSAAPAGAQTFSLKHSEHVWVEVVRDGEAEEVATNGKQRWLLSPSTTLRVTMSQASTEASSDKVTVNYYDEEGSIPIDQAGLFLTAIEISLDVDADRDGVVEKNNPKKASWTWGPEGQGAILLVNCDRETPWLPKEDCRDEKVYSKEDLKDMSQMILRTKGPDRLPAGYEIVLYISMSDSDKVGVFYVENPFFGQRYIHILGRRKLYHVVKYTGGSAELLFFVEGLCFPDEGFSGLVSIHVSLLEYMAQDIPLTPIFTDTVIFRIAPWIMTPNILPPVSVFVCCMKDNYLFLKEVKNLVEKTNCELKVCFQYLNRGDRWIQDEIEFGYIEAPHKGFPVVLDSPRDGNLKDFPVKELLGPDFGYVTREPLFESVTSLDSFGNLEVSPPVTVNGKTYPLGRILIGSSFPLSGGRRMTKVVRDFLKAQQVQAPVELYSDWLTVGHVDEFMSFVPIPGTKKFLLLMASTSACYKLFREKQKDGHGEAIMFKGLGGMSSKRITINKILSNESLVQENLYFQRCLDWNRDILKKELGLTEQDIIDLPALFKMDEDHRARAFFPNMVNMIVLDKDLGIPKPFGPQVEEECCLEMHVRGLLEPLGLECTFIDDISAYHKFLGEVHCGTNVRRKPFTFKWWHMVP
UniProt P21554, sequence (whole entry, unmodified, looked up): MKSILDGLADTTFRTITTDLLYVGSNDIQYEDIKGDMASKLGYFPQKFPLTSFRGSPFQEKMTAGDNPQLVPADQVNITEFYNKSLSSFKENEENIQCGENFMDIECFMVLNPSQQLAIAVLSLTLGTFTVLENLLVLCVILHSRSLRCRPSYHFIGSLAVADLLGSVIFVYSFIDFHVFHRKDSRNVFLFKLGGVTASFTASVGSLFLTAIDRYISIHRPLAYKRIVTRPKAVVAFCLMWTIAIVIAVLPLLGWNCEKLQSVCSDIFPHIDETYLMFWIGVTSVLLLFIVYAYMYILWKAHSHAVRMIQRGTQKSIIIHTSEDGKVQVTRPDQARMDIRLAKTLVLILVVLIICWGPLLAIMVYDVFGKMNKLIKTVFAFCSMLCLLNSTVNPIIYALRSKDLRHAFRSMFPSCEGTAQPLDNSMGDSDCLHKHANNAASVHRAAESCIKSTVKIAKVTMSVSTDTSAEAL
UniProt Q9Y2H1, sequence (whole entry, looked up): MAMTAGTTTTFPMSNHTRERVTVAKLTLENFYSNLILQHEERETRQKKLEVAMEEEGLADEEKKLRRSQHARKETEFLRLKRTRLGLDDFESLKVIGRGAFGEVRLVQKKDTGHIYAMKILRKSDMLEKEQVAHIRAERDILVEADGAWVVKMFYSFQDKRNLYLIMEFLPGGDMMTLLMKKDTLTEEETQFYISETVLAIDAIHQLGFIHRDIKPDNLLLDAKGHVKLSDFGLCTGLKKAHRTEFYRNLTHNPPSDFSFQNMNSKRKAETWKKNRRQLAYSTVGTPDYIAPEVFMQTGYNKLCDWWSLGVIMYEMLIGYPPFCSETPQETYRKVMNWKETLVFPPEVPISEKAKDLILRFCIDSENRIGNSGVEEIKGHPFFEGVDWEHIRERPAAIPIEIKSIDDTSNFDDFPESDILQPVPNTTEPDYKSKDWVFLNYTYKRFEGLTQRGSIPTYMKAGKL
UniProt Q9HBH9, sequence (whole entry, looked up): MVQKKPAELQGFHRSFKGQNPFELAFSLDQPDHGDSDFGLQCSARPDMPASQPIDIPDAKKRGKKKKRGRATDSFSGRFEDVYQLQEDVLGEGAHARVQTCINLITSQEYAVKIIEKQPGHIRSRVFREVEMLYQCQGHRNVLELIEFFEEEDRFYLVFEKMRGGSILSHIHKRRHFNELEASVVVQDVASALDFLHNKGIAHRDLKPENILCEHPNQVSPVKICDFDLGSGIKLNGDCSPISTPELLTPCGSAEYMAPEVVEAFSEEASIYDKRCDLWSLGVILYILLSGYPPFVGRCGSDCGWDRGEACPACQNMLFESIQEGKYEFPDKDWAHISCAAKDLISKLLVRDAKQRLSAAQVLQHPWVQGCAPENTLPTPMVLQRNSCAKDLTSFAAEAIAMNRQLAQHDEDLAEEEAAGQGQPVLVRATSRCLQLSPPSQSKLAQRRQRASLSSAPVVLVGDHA
UniProt P08908, sequence (whole entry, looked up): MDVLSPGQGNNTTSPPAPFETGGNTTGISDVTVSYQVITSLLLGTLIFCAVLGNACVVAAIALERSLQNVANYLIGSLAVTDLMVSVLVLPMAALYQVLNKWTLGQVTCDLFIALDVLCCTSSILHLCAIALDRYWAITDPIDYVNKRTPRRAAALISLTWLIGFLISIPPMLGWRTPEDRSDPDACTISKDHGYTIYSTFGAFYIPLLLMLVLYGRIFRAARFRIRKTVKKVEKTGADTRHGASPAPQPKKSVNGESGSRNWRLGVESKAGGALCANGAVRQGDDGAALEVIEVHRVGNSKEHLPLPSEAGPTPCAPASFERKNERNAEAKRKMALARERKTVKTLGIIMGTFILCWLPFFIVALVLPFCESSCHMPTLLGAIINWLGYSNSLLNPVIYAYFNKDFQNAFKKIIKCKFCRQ
UniProt P07948, sequence (whole entry, looked up): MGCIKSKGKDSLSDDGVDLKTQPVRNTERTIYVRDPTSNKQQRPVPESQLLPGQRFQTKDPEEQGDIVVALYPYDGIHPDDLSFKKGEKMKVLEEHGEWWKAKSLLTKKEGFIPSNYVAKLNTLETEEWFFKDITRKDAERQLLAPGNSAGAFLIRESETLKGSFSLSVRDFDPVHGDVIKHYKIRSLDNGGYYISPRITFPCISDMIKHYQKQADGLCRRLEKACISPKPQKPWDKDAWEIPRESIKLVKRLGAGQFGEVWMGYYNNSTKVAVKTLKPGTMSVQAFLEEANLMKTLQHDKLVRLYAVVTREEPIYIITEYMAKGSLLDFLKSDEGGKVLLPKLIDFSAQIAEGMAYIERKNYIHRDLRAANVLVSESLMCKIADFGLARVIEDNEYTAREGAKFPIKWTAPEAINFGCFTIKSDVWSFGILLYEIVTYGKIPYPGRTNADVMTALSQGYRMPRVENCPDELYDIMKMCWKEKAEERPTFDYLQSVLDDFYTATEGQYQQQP
UniProt Q9UHD2, sequence (whole entry, looked up): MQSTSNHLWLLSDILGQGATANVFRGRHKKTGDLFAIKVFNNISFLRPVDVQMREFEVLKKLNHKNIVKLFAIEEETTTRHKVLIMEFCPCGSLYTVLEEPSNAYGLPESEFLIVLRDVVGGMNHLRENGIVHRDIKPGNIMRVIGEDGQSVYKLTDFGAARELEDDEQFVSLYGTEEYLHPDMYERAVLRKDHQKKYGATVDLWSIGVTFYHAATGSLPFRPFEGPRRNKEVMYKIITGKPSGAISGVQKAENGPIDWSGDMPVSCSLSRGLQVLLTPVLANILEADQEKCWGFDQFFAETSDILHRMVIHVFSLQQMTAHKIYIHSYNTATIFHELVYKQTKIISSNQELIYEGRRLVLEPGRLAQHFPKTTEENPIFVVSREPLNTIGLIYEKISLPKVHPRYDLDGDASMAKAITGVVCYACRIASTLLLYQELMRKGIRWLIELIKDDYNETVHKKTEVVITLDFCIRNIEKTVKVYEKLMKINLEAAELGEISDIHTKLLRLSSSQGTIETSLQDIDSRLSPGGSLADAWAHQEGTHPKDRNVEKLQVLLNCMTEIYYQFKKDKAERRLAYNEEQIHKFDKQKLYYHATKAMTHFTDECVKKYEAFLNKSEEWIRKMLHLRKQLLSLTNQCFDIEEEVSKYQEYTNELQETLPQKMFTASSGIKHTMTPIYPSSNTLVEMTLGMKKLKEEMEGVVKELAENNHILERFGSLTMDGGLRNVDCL
UniProt P43235, sequence (whole entry, looked up): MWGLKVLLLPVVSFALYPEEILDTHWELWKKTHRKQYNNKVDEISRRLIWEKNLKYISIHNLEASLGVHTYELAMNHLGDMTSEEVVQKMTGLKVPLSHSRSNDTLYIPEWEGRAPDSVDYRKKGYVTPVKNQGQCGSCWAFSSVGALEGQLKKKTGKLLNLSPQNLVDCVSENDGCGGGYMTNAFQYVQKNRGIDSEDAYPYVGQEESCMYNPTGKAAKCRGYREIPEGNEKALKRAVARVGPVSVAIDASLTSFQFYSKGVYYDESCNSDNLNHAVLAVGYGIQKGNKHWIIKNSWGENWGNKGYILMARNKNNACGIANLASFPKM
UniProt P52564, sequence (whole entry, looked up): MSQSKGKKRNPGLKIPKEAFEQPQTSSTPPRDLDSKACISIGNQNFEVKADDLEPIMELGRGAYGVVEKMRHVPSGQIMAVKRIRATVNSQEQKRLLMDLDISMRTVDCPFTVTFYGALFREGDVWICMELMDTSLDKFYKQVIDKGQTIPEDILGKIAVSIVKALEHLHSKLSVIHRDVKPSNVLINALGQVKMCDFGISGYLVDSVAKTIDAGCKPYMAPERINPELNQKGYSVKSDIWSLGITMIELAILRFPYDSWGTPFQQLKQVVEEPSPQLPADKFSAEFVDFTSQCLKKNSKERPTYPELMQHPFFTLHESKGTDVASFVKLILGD

`O=C1NC2(CC2)COc2ncc(F)cc2[C@H]2COCCN2c2ccn3ncc1c3n2` has an epididymis weight of 1.37 ± 0.085 g (Sprague-Dawley rat, male, epididymides; oral, 20 mg/kg/day, end of recovery, 4-week repeated-dose toxicity).
For `Nc1ccc(/C=C/C(=O)N2CCc3c(oc4c(-c5ccc(F)cc5)cc(-c5ccc(C(=O)N6CCC(F)(F)CC6)cn5)cc34)C2)cn1`, the remaining binding was 100% (MAP kinase-interacting serine/threonine-protein kinase 2 (MKNK2, Homo sapiens, UniProt Q9HBH9); binding, competition with immobilised ligand; 1 µM).
`Cc1sc2c(c1C)C(c1ccc(Cl)cc1)=NC(CC(=O)OC(C)(C)C)c1nnc(C)n1-2` (centres unmarked) gave a remaining binding of 114% (5-hydroxytryptamine receptor 1A (HTR1A, Homo sapiens, UniProt P08908); ligand displacement, radioligand; 1 µM).
The inhibition of `CS(C)(=O)=Nc1ccc(-c2ccc(-c3nc4cc(O[C@@H]5CO[C@H]6[C@@H]5OC[C@H]6O)[nH]c4cc3F)cc2)cc1` is reported as 5% (Dual specificity mitogen-activated protein kinase kinase 6 (MAP2K6, Homo sapiens, UniProt P52564); enzyme activity, inhibitor; 10 µM).
For `CC(C)CC(O)(CC(C)C)c1cn(C(=O)N2CCCC2)nn1`, the SILAC ratio was 1.28 and 0.98 and 0.89 and 1.18 and 0.94 and 0.85 and 0.74 (S-formylglutathione hydrolase (Esd, Mus musculus, UniProt Q9R0P3); probe labelling, inhibitor, competitive ABPP-SILAC, measured: Esd; mouse T cells; concentration not given, 4 h, in situ, single peptide; reference: treated over DMSO, lower = more inhibition).
`O=C1NC(=O)c2c1c1cc(F)c[n+]3c1c1c2c2cc(O)ccc2[n]1[Ru-4]312([N]=C=S)[S+]3CC[S+]1CC[S+]2CC3` (centres unmarked) gave a remaining activity of 7% (Tyrosine-protein kinase Lyn (LYN, Homo sapiens, UniProt P07948); enzyme activity; 100 nM, human enzyme, together with: 10 µM ATP; reference: untreated).
With `N[C@H](C(=O)N1CCCC1)C1CCN(c2nccc3c(-c4ncc(Cl)cc4Cl)cccc23)CC1` the melting temperature was 61.8 °C and 61.1 °C (Protein-arginine deiminase type-2 (PADI2, Homo sapiens, UniProt Q9Y2J8); thermal shift; 0.3009 µM).
For `CN(C)[C@H]1C[C@@]23CC[C@@]4(O2)C(=CC[C@]2(C)[C@@H](c5ccc6ccncc6c5)CC[C@H]24)C=C3[C@@H](O)[C@@H]1O`, the inhibition was 3.2% (Serine/threonine-protein kinase 38-like (STK38L, Homo sapiens, UniProt Q9Y2H1); ATP probe labelling, inhibitor, KiNativ profiling; 1 µM).
`CC(C)CC(C(=O)N1CC2(CC1C#N)C(=O)Nc1ccccc12)N(C)C(=O)c1cc2c(F)cc(F)c(F)c2[nH]1` (centres unmarked) has a Hill slope of -0.62 (Cathepsin K (CTSK, Homo sapiens, UniProt P43235)).
For `CC(C)[C@H]1NC(=O)C[C@H]2/C=C/CCSSC[C@@H](NC1=O)C(=O)N[C@H](Cc1cccc3ccccc13)C(=O)NCC(=O)O2`, the inhibition was 4% (Serine/threonine-protein kinase TBK1 (TBK1, Homo sapiens, UniProt Q9UHD2); enzyme activity, inhibitor; 10 µM).
The Emax of `Cc1ccc2c(C(C[N+](=O)[O-])c3cccs3)c(-c3ccccc3)[nH]c2c1` (centres unmarked) is reported as 58.6 ± 3.07% (Cannabinoid receptor 1 (CNR1, Homo sapiens, UniProt P21554, P394A); Gαi1-γ2 dissociation, BRET).

A few entries again:
`CC(C)CC(C(=O)N1CC2(CC1C#N)C(=O)Nc1ccccc12)N(C)C(=O)c1cc2c(F)cc(F)c(F)c2[nH]1` (centres unmarked) has a Hill slope of -0.62 (Cathepsin K (CTSK, Homo sapiens, UniProt P43235)).
For `CC(C)[C@H]1NC(=O)C[C@H]2/C=C/CCSSC[C@@H](NC1=O)C(=O)N[C@H](Cc1cccc3ccccc13)C(=O)NCC(=O)O2`, the inhibition was 4% (Serine/threonine-protein kinase TBK1 (TBK1, Homo sapiens, UniProt Q9UHD2); enzyme activity, inhibitor; 10 µM).
